Published values gathered from unrelated publications.
A part holds a random share of what one study measured. “And” joins repeats or separate records; there may be more than shown.
Sequence of UniProt Q14790 (whole entry, looked up): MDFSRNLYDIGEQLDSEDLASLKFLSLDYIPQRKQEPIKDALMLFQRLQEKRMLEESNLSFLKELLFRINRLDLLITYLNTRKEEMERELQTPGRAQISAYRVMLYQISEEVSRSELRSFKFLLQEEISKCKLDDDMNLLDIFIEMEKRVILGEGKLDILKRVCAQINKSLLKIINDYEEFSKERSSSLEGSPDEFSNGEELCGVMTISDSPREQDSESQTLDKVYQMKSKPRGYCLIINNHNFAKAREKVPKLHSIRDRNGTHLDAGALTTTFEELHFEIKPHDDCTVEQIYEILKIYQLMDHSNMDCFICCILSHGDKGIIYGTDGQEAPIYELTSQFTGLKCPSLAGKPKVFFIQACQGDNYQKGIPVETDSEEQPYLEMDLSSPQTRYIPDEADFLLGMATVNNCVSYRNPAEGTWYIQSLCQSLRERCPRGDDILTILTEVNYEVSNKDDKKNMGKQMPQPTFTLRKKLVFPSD

Set 1 — observed: enzyme activity; action: inhibitor
SMILES: CC[C@H](C)[C@H](NC(C)=O)C(=O)N[C@@H](CCC(=O)O)C(=O)N[C@H](C(=O)N[C@H](C=O)CC(=O)O)[C@@H](C)O
CASP6: Caspase-6 (CASP6, Homo sapiens, UniProt P55212)
Sequence of UniProt P55212 (whole entry, looked up): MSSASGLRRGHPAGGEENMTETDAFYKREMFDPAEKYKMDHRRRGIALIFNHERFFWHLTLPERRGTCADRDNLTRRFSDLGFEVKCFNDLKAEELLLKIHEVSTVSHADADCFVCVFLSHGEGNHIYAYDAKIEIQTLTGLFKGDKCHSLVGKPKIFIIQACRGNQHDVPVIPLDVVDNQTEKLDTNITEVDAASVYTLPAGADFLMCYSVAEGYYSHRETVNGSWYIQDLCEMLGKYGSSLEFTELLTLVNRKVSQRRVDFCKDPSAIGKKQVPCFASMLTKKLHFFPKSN
It gave 93% for inhibition (CASP6; 5 µM).
The inhibition was 78% (Caspase-8 (CASP8, Homo sapiens, UniProt Q14790); 0.1 µM).
It gave 34% for inhibition (CASP6; 0.5 µM).

Set 2 — host: Crbn I391V mouse, MC-38 tumour; dose: 30 mg/kg
Compound: Cn1cc(-c2cccc(CN3CCC4(CC3)COc3c4ccc4c3CN([C@H]3CCC(=O)NC3=O)C4=O)c2)cn1
day 11, with: anti-LAG3 antibody 10 mg/kg weekly — “body weight change”: -2.1% and 0.7% and -2.4% and 0%.
It gave 9.9% for “body weight change” (day 50, with: anti-LAG3 antibody 10 mg/kg weekly).
The “body weight change” was 11.4% and 23.1% and -1.7% (oral, daily, day 36, anti-PD1 combination study).
It gave 12.2% for “body weight change” (oral, daily, day 39, anti-PD1 combination study).
It gave 0.4% and 8.2% and -4.2% and -1.6% and 10.1% and 1.1% and -3.5% for “body weight change” (day 19, with: anti-LAG3 antibody 10 mg/kg weekly).
For oral, daily, day 15, anti-PD1 combination study: “body weight change” read 2.4% and -4.4% and 6.5% and 0%.
For day 25, with: anti-LAG3 antibody 10 mg/kg weekly: “body weight change” read -0.4% and -2.8% and 1.2% and 3.3% and 7.4%.

Other studies, line by line
`Cc1c(NC(=O)c2cccn(-c3ccc(F)cc3)c2=O)ccc(Oc2ccnc(NC(=O)C3CC3)c2)c1C` has a viability of 69.9% (L929; necroptosis protection, CCK-8; 0.625 µM, with: TNF-α-induced).
`CC(C)OC(=O)[C@H](CCC(=O)C=[N+]=[N-])NC(=O)[C@H](Cc1c[nH]c2ccccc12)NC(=O)C12CCN(CC1)CC2` gave a DON concentration of 0 nmol/g (P493B lymphoma cells; P493B cells in human plasma; concentration not given, tumour cell fraction of partition).
The viability of `Cc1cc(-c2cnc(N)c3c(-c4ccc5scnc5c4)csc23)n(C)n1` is reported as 14.3% (L929; necroptosis protection, CCK-8; 0.00229 µM, with: TNF-α-induced).
With `N=C(N)NCCCCCCN1CCC23c4c5ccc(O)c4OC2c2nc4ccccc4cc2CC3(O)C1C5` (stereo not drawn) the seizure score was 0 (modified Racine scale; C57BL/6J mice, male; intracerebroventricular, 100 nmol, 55 min; direction not given).
The viability of `CC(C)(C)n1nc(-c2ccc(Cl)cc2)c2c(N)ncnc21` is reported as 64.5% and 67.9% and 56.9% and 58.5% and 68.5% (L929; CCK-8; 12.5 µM).

Excerpt of the above (set 2):
The “body weight change” was 11.4% and 23.1% and -1.7% (oral, daily, day 36, anti-PD1 combination study).
It gave 12.2% for “body weight change” (oral, daily, day 39, anti-PD1 combination study).
